# Results collected from several papers.
# Numbered parts are unrelated; each lists some results of a single study.

# Sample 1
# Target: PABPC1L2, full length, GST fusion (mouse, UniProt A0ABA7IW68)
# Technique: RNAcompete
# Molecule type: RNA
# Medium: in vitro
# Tested at: 20 nM
# Setting: 7-mer, probes averaged, single round
# Relative to: mean of 7-mers
# Direction: higher = stronger binding
# Residues (chain): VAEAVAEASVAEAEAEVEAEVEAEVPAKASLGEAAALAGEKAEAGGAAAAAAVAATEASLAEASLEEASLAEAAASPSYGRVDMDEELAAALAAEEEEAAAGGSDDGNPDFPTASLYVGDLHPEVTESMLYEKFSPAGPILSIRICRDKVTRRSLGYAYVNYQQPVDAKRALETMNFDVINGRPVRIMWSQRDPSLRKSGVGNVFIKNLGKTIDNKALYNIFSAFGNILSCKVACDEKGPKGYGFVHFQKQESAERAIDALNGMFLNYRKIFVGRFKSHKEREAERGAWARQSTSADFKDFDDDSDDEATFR
Sequence,7-mer Z-score
UGCACCA,-0.204
AGCUACG,-0.219
CAAGGGG,0.425
GGCCAAA,0.602
CUAUCUU,-0.331
CUAAGGU,-0.13
AGUUGCU,-0.229
CCUUACA,-0.264
AUCGCAA,0.00617
GCAUCAU,-0.18
UAAGUGC,-0.119
CAGACGC,0.0315
ACAAGUU,-0.0264
AUGGAUA,0.229
AAUACCC,0.0605
CGAAUCG,-0.188
AUCAAUC,0.0279

# Sample 2
# Target: RNA binding protein fox-1 homolog 2, RRM domain, GST-SBP tag (RBFOX2, Homo sapiens, UniProt O43251-10, residues 100-194)
# Technique: RNA Bind-n-Seq
# Molecule type: RNA
# Medium: in vitro
# Tested at: 365 nM
# Setting: natural RNA segment, single round, ends assumed
# Relative to: no-protein control
# Direction: higher = stronger binding
# Residues (chain): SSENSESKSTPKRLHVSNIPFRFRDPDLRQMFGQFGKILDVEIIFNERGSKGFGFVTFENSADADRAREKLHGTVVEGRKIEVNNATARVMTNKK
Sequence,RBNS enrichment (R)
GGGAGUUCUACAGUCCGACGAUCAAGUGGGCACGUUCUCUCGGGGUGGCUCACAGCUUUGAACCUGCCAAAGGACCCCUCGACUGGCCACAGCCCAGCCCAGCCUGACGUGGAUGUGGCUGCCCAGGAAAAGAUGGAAUUCUCGGGUGCCAA,0.793
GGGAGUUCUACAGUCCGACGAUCUGCCCAGGCCACACUAGUUGGCCCCAGCACUCUACCUUAGGCCCAGGCUGGCCACAGGCAGUGGGCAGCUCACUUGCUGCAGUGUCAUAGCAAUAAAAUGUGAUUCUUGGUGGAAUUCUCGGGUGCCAA,0.292
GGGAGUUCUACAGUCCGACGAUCUGAUAGAAUUUUAGUUUUAGGAAAAAUUGGUUUGAUUUCUAGCUUUAUUACUAUUAGGUAUGUGAGCUUGGGCAAAUCGCUUAAUCUUUGAGUCUAGUUUUCUCUCAAAAUGGAAUUCUCGGGUGCCAA,0.379
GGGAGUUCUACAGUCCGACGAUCGACGAUGUUACAGACUCUGUUUUCUGCCUGGCGUUUCACUUGUGUCUGCUCCUAGCCUGUGCUCUGCCAGCAGCACAGACAUCUGCUCCAUCAGACCUCUUCCAUUUUGCUGGAAUUCUCGGGUGCCAA,0.386
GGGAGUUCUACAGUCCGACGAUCAAAUGAAAAACCAGAAGGCCAUUUGGUGUCCCCCCUCCCAGGUGUCCCCUUGUAGCAUAUGCAUUAUGUCAUCUGAAUUGAGGCCUUUCUGUGAACAGCAUCAUAACUUCUGGAAUUCUCGGGUGCCAA,0.902
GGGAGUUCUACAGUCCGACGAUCUUAUAGGAGUUGCUCCUCUUUGCAUGGUUCUGUUCUAUAGAAGUGACUGAUAACAGCCAUUGCACUGAAGUGUGAGCUGUCCGUGUGUGACUUUAUAAAUACAGUUUUAAUGGAAUUCUCGGGUGCCAA,1.29
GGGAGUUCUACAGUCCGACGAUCCAGUUUCAUGAAAGAAAGUGGAAGCUACAGAAUUAUUUUCUAAAAUAAAGGCUGAAUUGUCUGAAAAUAUUUAUGUGUGUGUGUCCUGGAAAAGGAGGUGGCAGGCAGGGUGGAAUUCUCGGGUGCCAA,0.851
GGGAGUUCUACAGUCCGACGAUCGGACCUCUCCUGAGAGGCAAAACCUGUUGCCUCCACCACGGCUUCCCUCUUGGCUCAUUCCAAGCUUGGCCAAAUUGGGGAAGUGGGAUGGAGGUUGCCCUGCAUCCCCCUGGAAUUCUCGGGUGCCAA,0.476
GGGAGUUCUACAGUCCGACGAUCGGCAGGAGAAGAGAAUGGAUGUGUCUUCUCUCCCAUCUUCCCCUCAUCAUCGACCGAGGAGCACAAAGAAGUUCUGUUUCUGUUUUUUUCAGAAACUUUAUUUUAGCUGUUGGAAUUCUCGGGUGCCAA,0.639
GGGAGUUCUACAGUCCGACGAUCAGGUCUGCUGUGGGCAAGUAUAGCCUAACCCUAGUCUUGUAAAAUAAGCCAGAAAGGGUUACUGAGCCACCUUAAGCUAGUACCUAUAUAGUAGGCAAAAAGUACAGAAAUGGAAUUCUCGGGUGCCAA,0.31
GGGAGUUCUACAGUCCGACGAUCUUAGGAAAUCCUGCACCGGUUUCUUCGCUAAUUCUUGAAACUGCUCAAGCUUCAUGUAGGGUCAGGGGUGCCUAGGGAUGGCCCCAUCUGCUAUGUAAAUUAGGACUUGCUGGAAUUCUCGGGUGCCAA,0.546
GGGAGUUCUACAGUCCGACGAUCAAUAAACCUUUAUGUACUUAAAAUUAUACAGAAAAUAGAAUAAAGUUAAUACCAAACUUGUUUAGUUUUCACCUGAUGUUUUCAGUACAGAGAUGUGAAAAUACUGAAAAUGGAAUUCUCGGGUGCCAA,0.379

# Sample 3
# Target: Histone acetyltransferase KAT6A, winged helix 2, GST fusion (KAT6A, Homo sapiens, UniProt Q92794, residues 85-181)
# Technique: protein binding microarray
# Molecule type: double-stranded DNA, one strand shown
# Medium: in vitro
# Tested at: not given
# Setting: 8-mer, flanks averaged, mean of 2 arrays, mostly near background
# Relative to: not given
# Direction: higher = stronger binding
# Residues (chain): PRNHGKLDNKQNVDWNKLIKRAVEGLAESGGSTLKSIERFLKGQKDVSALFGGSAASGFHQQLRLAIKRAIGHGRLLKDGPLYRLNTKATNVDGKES
Sequence,E-score
GCTGACTA,-0.0425
AACGGCAC,0.0111
GGGAGAGA,-0.0668
ATATGCCA,0.0774
ACATTCCC,0.0803
ACGTTATC,-0.22
CTCTCCTA,-0.0561
GATCTCAA,0.0838
ACACGTGA,-0.388
ATACGAGA,-0.113
TATTTACA,-0.136
AGTGTGGA,-0.0894
TAAGATTA,0.0247
ATTCCGCG,0.0733
AGACAATG,-0.135
CGATAGTA,-0.142
AAATGCAA,0.0382
CGTTTTCC,-0.16
TCATCGGA,-0.00355
ATCACGTC,-0.154
CTGTCTCC,0.16
CAGTGATC,0.0639

# Sample 4
# Target: Interferon regulatory factor 3, full length, phosphomimetic (IRF3, Homo sapiens, UniProt Q14653, residues 1-427, S386D/S396D/S398D/S402D/T404D/S405D)
# Chain of UniProt Q14653 (whole entry, unmodified, looked up): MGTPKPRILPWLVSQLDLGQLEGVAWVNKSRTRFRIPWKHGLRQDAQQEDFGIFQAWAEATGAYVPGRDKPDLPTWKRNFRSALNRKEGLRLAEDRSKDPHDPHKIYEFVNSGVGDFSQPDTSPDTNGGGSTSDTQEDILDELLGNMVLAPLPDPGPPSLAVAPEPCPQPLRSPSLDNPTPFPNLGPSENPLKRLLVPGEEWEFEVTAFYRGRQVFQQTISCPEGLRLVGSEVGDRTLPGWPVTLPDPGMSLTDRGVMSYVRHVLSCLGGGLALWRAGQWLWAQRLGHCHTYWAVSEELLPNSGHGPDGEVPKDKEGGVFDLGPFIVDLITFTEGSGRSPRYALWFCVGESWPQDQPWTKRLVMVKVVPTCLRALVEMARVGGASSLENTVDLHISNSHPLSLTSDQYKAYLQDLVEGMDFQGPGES
# Technique: protein-binding microarray
# Molecule type: double-stranded DNA, one strand shown
# Medium: in vitro
# Tested at: 2540 nM top
# Setting: 60-bp whole probe
# With: salmon DNA 0.4 mg/ml
# Relative to: random background probes
# Direction: higher = stronger binding
# Shared flanks, not repeated: GCCTAGCAC … GTCTTGATTCGCTTGACGCTGCTG
Sequence,fitted relative affinity [z-score]
TCATAAACTAGAAACTGAACTGTGCTA,0.163
TTAGGACTGCTTACCCTTTAGTGCTAG,0.846
CTTGATTTTGGTCTTTCTGTGTGCTAG,0.47
TTAGATATCAGAATGGATTAGTGCTAG,0.803
GACGGTTTCGACTATCCGGACGTGCTA,3.41
GAAGGTATCGACTTTCGGGACGTGCTA,1.29
CTTTATTTAAGCTCCTATCTTGTGCTA,1.64
GACGTTATCGGGACTGGAGACGTGCTA,0.373
GACGGACTGGGAATCGGGACGTGCTAG,-0.602
TACTCTTGTGACTATGGACCGTGCTAG,-0.11
TCTATAATGGATATATATCAGTGCTAG,0.238
GACGAACTAAGTATCGAGACGTGCTAG,0.383
TTAGGAATCGACTTTCGGTTAGTGCTA,1.72
TTAGGTTTCGACTATCGGATAGTGCTA,2.53
GACGGTATCGACTATTGGGACGTGCTA,0.414
GACGATCTCGGACTGGAGACGTGCTAG,0.199
TCAAGTTTTCTTTTCATACTGTGCTAG,4.98
TTATATCTCAGACTGGATTAGTGCTAG,0.473
GTCGGACTGGGGTTTCGGGACGTGCTA,0.903
GAGGGTTTCCTTATCCTGACGTGCTAG,6.51
GACGGTATCTACTTTCGGGACGTGCTA,1.4
TTAGGTATCGATACTGGGTTAGTGCTA,1.81
TTAGAACTTGGGACTGGATTAGTGCTA,-0.658
TTAGGACCGGACTTTCGGTTAGTGCTA,1.4
TTAGGTTTCTGTATCGGTTAGTGCTAG,5.03

# Repeated from above (sample 1):
Sequence,7-mer Z-score
GCAUCAU,-0.18
AUCAAUC,0.0279
UGCACCA,-0.204
CUAAGGU,-0.13
AUCGCAA,0.00617
AGUUGCU,-0.229
AGCUACG,-0.219
CCUUACA,-0.264
CGAAUCG,-0.188
